Measurements gathered from unrelated publications.
A part holds a random share of what one study measured. “And” joins repeats or separate records; there may be more than shown.
Chain of UniProt P27037 (whole entry, looked up): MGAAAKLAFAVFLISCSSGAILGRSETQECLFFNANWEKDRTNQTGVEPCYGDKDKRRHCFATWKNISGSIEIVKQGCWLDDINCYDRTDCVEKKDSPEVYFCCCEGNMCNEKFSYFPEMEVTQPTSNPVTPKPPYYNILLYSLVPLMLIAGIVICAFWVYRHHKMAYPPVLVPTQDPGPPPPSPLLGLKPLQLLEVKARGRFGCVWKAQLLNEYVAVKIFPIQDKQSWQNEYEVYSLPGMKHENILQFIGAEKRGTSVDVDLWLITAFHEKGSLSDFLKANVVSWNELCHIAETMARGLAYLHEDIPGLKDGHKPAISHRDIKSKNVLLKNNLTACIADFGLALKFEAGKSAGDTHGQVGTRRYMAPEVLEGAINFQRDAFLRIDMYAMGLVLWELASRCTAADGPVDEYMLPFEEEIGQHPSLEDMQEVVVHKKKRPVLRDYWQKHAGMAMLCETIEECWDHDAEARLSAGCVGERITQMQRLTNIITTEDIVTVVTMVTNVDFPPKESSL
Chain of UniProt Q9BWU1 (whole entry, looked up): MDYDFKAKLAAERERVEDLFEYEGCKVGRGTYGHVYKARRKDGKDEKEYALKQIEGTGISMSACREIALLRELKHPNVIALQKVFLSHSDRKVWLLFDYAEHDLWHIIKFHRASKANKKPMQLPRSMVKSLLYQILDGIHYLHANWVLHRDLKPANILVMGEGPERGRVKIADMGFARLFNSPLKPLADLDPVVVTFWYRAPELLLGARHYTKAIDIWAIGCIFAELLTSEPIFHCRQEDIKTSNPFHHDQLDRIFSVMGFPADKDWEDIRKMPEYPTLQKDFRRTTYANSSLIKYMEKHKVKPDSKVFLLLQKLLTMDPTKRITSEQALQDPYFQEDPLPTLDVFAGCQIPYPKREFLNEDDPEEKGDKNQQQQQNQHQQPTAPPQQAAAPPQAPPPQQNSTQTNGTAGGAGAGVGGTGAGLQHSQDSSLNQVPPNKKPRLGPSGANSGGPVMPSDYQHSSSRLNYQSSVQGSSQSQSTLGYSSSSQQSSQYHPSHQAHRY
Chain of UniProt Q9Y5S2 (whole entry, looked up): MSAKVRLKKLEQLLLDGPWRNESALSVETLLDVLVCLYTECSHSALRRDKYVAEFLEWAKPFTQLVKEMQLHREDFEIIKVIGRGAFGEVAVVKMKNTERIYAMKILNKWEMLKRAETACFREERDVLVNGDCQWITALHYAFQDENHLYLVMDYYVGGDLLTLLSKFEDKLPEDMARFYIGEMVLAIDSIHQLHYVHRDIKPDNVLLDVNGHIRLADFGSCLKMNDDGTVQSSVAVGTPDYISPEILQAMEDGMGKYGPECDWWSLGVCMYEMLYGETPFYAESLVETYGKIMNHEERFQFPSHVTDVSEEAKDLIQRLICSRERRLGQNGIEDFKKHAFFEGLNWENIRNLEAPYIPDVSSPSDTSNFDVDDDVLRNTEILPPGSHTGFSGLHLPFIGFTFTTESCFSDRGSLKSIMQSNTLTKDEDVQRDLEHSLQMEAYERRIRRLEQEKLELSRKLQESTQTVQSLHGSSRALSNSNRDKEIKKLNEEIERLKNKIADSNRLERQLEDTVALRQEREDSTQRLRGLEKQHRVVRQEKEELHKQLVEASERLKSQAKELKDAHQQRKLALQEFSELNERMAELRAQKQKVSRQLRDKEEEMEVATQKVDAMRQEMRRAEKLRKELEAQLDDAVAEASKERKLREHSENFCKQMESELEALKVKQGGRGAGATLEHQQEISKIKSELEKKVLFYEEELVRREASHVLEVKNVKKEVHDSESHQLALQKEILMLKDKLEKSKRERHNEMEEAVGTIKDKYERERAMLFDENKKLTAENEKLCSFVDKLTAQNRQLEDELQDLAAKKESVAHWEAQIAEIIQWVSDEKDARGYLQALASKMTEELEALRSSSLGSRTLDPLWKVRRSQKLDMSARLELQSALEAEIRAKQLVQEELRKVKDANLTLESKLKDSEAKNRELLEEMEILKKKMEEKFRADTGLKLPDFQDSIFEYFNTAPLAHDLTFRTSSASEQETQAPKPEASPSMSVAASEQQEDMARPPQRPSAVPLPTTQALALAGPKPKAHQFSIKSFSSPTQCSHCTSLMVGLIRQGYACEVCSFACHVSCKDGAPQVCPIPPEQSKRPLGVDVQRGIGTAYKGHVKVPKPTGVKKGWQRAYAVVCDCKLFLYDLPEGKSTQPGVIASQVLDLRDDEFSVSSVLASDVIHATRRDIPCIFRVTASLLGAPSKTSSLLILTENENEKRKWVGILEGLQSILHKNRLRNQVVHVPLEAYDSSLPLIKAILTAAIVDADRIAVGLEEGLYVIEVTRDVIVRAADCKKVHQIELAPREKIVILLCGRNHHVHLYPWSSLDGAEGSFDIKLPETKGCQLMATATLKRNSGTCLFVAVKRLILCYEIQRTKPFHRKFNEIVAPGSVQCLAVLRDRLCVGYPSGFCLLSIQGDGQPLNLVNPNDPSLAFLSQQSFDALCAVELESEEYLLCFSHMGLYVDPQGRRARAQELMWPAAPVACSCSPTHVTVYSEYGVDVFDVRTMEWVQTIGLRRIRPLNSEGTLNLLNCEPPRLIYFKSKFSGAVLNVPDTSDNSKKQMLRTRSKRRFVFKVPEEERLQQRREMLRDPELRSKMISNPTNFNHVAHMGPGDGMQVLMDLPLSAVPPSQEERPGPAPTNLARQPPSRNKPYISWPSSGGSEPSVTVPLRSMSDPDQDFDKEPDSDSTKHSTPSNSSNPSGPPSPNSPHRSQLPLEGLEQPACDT
Chain of UniProt P49841 (whole entry, looked up): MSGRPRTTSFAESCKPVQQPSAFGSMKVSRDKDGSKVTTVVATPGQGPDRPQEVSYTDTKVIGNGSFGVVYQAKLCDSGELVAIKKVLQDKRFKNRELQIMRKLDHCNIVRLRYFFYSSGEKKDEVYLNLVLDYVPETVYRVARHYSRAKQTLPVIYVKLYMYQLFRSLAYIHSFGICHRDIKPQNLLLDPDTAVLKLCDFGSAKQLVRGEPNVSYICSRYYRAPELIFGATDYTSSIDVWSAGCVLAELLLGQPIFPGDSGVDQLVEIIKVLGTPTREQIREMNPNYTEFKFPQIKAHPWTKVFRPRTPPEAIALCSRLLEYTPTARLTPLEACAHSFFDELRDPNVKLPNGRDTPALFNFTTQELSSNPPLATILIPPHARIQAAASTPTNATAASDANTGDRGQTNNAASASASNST
Chain of UniProt Q96J92 (whole entry, looked up): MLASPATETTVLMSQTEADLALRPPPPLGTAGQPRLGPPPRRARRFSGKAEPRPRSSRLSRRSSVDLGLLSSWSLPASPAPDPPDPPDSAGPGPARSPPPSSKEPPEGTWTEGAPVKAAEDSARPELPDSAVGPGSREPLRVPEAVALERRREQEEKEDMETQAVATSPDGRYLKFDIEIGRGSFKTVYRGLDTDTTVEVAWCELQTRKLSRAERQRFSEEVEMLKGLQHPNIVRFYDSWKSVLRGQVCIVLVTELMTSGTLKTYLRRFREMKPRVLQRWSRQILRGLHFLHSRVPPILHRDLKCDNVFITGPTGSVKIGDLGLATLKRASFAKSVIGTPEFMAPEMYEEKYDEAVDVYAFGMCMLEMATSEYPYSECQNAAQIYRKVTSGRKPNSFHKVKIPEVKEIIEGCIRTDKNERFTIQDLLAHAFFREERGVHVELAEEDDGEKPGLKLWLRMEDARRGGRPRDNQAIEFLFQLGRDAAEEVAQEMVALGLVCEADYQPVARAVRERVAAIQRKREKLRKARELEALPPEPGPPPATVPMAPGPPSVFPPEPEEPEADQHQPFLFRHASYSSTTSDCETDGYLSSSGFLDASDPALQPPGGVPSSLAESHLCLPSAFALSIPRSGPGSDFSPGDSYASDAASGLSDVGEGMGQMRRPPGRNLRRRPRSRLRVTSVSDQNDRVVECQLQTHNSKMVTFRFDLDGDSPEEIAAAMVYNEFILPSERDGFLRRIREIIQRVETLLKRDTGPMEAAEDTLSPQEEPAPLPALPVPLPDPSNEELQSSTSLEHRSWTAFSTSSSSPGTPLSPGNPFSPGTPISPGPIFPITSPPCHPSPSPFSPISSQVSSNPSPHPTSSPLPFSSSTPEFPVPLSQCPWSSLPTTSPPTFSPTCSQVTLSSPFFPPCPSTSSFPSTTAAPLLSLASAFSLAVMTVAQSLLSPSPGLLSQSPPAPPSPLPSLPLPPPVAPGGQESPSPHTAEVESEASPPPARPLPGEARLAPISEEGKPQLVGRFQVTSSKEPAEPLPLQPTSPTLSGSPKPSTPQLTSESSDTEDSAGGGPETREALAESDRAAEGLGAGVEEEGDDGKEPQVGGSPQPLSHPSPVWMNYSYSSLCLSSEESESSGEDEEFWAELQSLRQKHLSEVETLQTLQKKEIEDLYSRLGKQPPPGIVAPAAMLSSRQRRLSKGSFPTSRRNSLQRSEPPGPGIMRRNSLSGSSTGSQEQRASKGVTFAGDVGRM

Block 1
Compound: N#CC1(c2ccccn2)CCN(Cc2cc(C(=O)N3CCCC3)c(=O)n3ccccc23)CC1
Tested at: 1 µM
target	assay	remaining binding
LTK (Homo sapiens, UniProt P29376)	cell-free assay, competition with immobilised ligand	90%
Aurora kinase B (AURKB, Homo sapiens, UniProt Q96GD4)	cell-free assay, competition with immobilised ligand	92%
Tyrosine-protein kinase ABL1, phosphorylated (ABL1, Homo sapiens, UniProt P00519)	cell-free assay, competition with immobilised ligand	89%
PRKX (Homo sapiens, UniProt P51817)	cell-free assay, competition with immobilised ligand	96%
FLT3 (Homo sapiens, UniProt P36888, ITD)	cell-free assay, competition with immobilised ligand	100%
Macrophage colony-stimulating factor 1 receptor, autoinhibited (CSF1R, Homo sapiens, UniProt P07333)	cell-free assay, competition with immobilised ligand	86%
BMPR2 (Homo sapiens, UniProt Q13873)	cell-free assay, competition with immobilised ligand	92%
MAP3K15 (Homo sapiens, UniProt Q6ZN16)	cell-free assay, competition with immobilised ligand	100%
WNK4 (Homo sapiens, UniProt Q96J92)	cell-free assay, competition with immobilised ligand	81%
STK36 (Homo sapiens, UniProt Q9NRP7)	cell-free assay, competition with immobilised ligand	98%
ALK (Homo sapiens, UniProt Q9UM73, C1156Y)	cell-free assay, competition with immobilised ligand	100%
IRAK3 (Homo sapiens, UniProt Q9Y616)	cell-free assay, competition with immobilised ligand	100%
NEK6 (Homo sapiens, UniProt Q9HC98)	cell-free assay, competition with immobilised ligand	100%
FLT3 (Homo sapiens, UniProt P36888, D835H)	cell-free assay, competition with immobilised ligand	87%
GSK3B (Homo sapiens, UniProt P49841)	cell-free assay, competition with immobilised ligand	100%
VRK2 (Homo sapiens, UniProt Q86Y07)	cell-free assay, competition with immobilised ligand	100%
CDC42BPB (Homo sapiens, UniProt Q9Y5S2)	cell-free assay, competition with immobilised ligand	63%
ACVR2A (Homo sapiens, UniProt P27037)	cell-free assay, competition with immobilised ligand	78%
CDK19 (Homo sapiens, UniProt Q9BWU1)	competition binding	75%
CAMK1 (Homo sapiens, UniProt Q14012)	cell-free assay, competition with immobilised ligand	100%

Block 2
Species: human
Sample: microsomes or S9
Tested at: 2 µM
Time: 0.5 h
Compound	remaining compound
CCOC(=O)c1cnn(-c2ccc(C(=O)O)cc2)c1N	16.2%
COCCn1c(C)cc(C)c(C(=O)NCCNc2ncccn2)c1=O	92%
CC1C(c2ccccc2)CCC(C(=O)O)C1C(=O)O (centres unmarked)	> 99%
Cc1cc2nc(NC(=O)N3CCN(c4cc(C(C)(C)C)cc(C(C)(C)C)c4)CC3)sc2cc1C	35.8%
COC(=O)CC(c1cc(Cl)c2c(c1)OCO2)c1c(O)cc(C)[nH]c1=O (centres unmarked)	0.0338%
OCCCNc1nc(N2CCN(c3ccccc3F)CC2)nc2ccccc12	52.7%
CCOCCOC1CCN(S(=O)(=O)c2cn(C)cn2)CC1	> 99%
O=C(Nc1c(O)c(Cl)cc(Cl)c1Cl)c1nc(=O)[nH][nH]1	12.8%
O=c1ccc(-n2ccnc2)nn1CC(O)COc1ccc(Oc2ccccc2)cc1 (centres unmarked)	53.3%
CC(C)Cn1ccnc1NC(=O)c1cnc(C(C)(C)C)s1	50.6%
O=C(c1ccccc1)c1c[nH]c(C(c2ccccc2)c2ccc(C(c3ccccc3)c3cc(C(=O)c4ccccc4)c[nH]3)o2)c1 (centres unmarked)	47.8%
CCc1csc(Cn2cc(C(C)c3ccccc3)nn2)n1 (centres unmarked)	22.1%
COc1cc(=O)[nH]cc1C(=O)N1CCCCC1c1ccccc1 (centres unmarked)	89.5%
COc1ccc(CCCNC(=O)c2cnn3cc(Br)cnc23)cc1	48.9%

Block 3
Target: Death-associated protein kinase 3 (DAPK3, Homo sapiens, UniProt O43293)
Chain of UniProt O43293 (whole entry, looked up): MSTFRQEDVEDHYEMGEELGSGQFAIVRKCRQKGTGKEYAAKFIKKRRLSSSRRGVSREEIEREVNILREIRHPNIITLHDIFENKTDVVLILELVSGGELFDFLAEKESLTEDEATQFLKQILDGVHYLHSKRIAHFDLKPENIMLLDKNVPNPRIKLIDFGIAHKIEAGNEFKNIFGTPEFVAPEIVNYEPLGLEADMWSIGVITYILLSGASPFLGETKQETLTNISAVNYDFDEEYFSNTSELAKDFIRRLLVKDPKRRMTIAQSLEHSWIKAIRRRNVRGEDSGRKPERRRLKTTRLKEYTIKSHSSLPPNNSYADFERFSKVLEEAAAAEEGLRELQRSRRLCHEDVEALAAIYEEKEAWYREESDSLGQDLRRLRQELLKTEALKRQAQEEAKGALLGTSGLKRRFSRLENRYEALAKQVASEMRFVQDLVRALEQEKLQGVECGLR
Effect on: enzyme activity
Action: inhibitor
Tested at: 0.5 µM
Baseline: control
SMILES	remaining activity
O=C1Nc2ccccc2/C1=C\c1c(Cl)[nH]c2ccccc12	91.2%
Cc1ccc(S(=O)(=O)/C=C/C#N)cc1	97.4%
O=C1Cc2c([nH]c3ccc(Br)cc23)-c2ccccc2N1	111%
CCCNC(=O)Nc1ccc(Oc2ncnc3cc(OC)c(OC)cc23)cc1Cl	88.8%
O=C1NC(=O)c2c1c1c3ccccc3[nH]c1c1[nH]c3cc(Br)ccc3c21	62.9%
COc1ccc2c(c1)c(C1=C(c3c[nH]c4ccccc34)C(=O)NC1=O)cn2CCCN(C)C	75.5%
c1ccc2c(-c3ccncc3)c[nH]c2c1	101%
c1ccc(-c2n[nH]c3c2oc2ccccc23)cc1	91.5%
O=C(c1cc2cc(O)ccc2[nH]1)c1cc2cc(O)ccc2[nH]1	104%

Further values, each from its own experiment
Structure (SMILES)	cell line	assay	conditions	how to read	endpoint	result
CC(C)S(=O)(=O)c1ccc2nccc(Nc3ccc4sc(C5CCCC5)nc4c3)c2c1.Cl	L929	caspase activity, Ac-DEVD-pNA absorbance	50 µM, 0 h	higher = more activity	caspase-3 activity	0.007 a.u. and 0.018 a.u. and 0.005 a.u.

Excerpt of the above (block 2):
Compound	remaining compound
O=C(Nc1c(O)c(Cl)cc(Cl)c1Cl)c1nc(=O)[nH][nH]1	12.8%
O=C(c1ccccc1)c1c[nH]c(C(c2ccccc2)c2ccc(C(c3ccccc3)c3cc(C(=O)c4ccccc4)c[nH]3)o2)c1 (centres unmarked)	47.8%
OCCCNc1nc(N2CCN(c3ccccc3F)CC2)nc2ccccc12	52.7%
Cc1cc2nc(NC(=O)N3CCN(c4cc(C(C)(C)C)cc(C(C)(C)C)c4)CC3)sc2cc1C	35.8%
O=c1ccc(-n2ccnc2)nn1CC(O)COc1ccc(Oc2ccccc2)cc1 (centres unmarked)	53.3%
